{"data": "Assay results collected from several papers", "note": "Each line is one published result; not all experiments were run side by side. Several values in a cell are separate wells, animals, samples, runs or records. ± marks the error that the study gave."}
{"Structure (SMILES)": "O=[N+]([O-])c1ccc(-n2nc(-c3ccccc3)cc2-c2ccc(F)cc2)c([N+](=O)[O-])c1", "organism": "Japanese encephalitis virus", "assay": "plaque", "test system": "SA14-14-2", "conditions": "5 µM, 72 h", "scale": "relative to: control", "endpoint": "viral titre reduction", "value": "~59%"}
{"Structure (SMILES)": "CC(NC(=O)C(Cc1ccccc1)NC(=O)OCc1ccccc1)C(=O)CF (centres unmarked)", "organism": "SARS-CoV-2 USA_WA1/2020", "test system": "Vero E6", "conditions": "concentration not given, 72 h", "endpoint": "inhibition of cytopathic effect", "value": "105%"}
{"Structure (SMILES)": "O=S(=O)(O)c1c2ccccc2c(-c2c3nc(c(-c4c5ccccc5c(S(=O)(=O)O)c5ccccc45)c4ccc([nH]4)c(-c4c5ccccc5c(S(=O)(=O)O)c5ccccc45)c4nc(c(-c5c6ccccc6c(S(=O)(=O)O)c6ccccc56)c5ccc2[nH]5)C=C4)C=C3)c2ccccc12", "organism": "vaccinia virus", "test system": "WR", "conditions": "25 µg/mL, 16 h", "endpoint": "virus titre", "value": "1.2e+06 PFU/mL"}
{"Structure (SMILES)": "C[N+]1=C2C(c3ccccc3)=[N+]([O-])c3ccccc3N2CCC1", "organism": "Clostridium perfringens", "assay": "microbial growth", "endpoint": "MIC50", "value": "32 µg/mL"}
{"Structure (SMILES)": "COc1cc(Cc2cnc(N)nc2N)cc(OC)c1OC.O=c1[nH]cc(F)c(=O)[nH]1", "organism": "Shigella dysenteriae", "assay": "broth microdilution", "conditions": "48 h", "endpoint": "MBC", "value": "16 µg/mL"}
{"Structure (SMILES)": "O=c1ccn(C2OC(F)(CO)C(O)C2O)c(=O)[nH]1 (centres unmarked)", "organism": "Lassa mammarenavirus", "assay": "viral replication", "test system": "Huh-7", "conditions": "concentration not given", "endpoint": "Emax", "value": "99.4 ± 0.18%"}
{"Structure (SMILES)": "N#Cc1ncn(COCCOCc2ccccc2)c1C#N", "organism": "Mammarenavirus lassaense", "assay": "viral replication, inhibitor", "test system": "Vero", "conditions": "48 h", "endpoint": "IC50", "value": "10 µg/mL"}
{"Structure (SMILES)": "O=C(C=Cc1ccc(O)c(O)c1)OC1CC(O)(C(=O)O)CC(OC(=O)C=Cc2ccc(O)c(O)c2)C1O (centres unmarked)", "organism": "Severe acute respiratory syndrome coronavirus 2", "assay": "cytopathic effect", "test system": "Vero C1008", "conditions": "25 µM", "endpoint": "inhibition", "value": "0%"}
{"Structure (SMILES)": "CC[C@H](C)[C@H](NC(=O)[C@H](CCCCN)NC(=O)[C@H](CCCCN)NC(=O)[C@H](CC(C)C)NC(=O)[C@H](Cc1c[nH]c2ccccc12)NC(=O)CN)C(=O)NCC(=O)N[C@@H](CCCCN)C(=O)N[C@@H](CCCCN)C(=O)N[C@H](C(=O)N[C@@H](CCC(=O)O)C(=O)N[C@@H](CCCNC(=N)N)C(=O)N[C@H](C(=O)NCC(=O)N[C@@H](CCC(N)=O)C(=O)N[C@@H](Cc1c[nH]cn1)C(=O)N[C@H](C(=O)N[C@@H](CCCNC(=N)N)C(=O)N[C@@H](CC(=O)O)C(=O)N[C@@H](C)C(=O)N[C@H](C(=O)N[C@H](C(=O)N[C@@H](CCC(N)=O)C(=O)N[C@H](C(=O)N[C@H](C(=O)NCC(=O)N[C@H](C(=O)N[C@@H](C)C(=O)N[C@@H](CCC(N)=O)C(=O)N[C@@H](CCC(N)=O)C(=O)N[C@@H](C)C(=O)N[C@@H](C)C(=O)N[C@@H](CC(N)=O)C(=O)N[C@H](C(=O)N[C@@H](C)C(=O)N[C@@H](C)C(=O)N[C@H](C(=O)N[C@@H](CC(C)C)C(=O)N[C@@H](CCCCN)C(N)=O)[C@@H](C)O)C(C)C)C(C)C)[C@@H](C)CC)[C@@H](C)O)[C@@H](C)CC)[C@@H](C)O)[C@@H](C)O)C(C)C)[C@@H](C)CC", "organism": "Escherichia coli", "test system": "ATCC 25922, CAMHB with 10% mouse serum", "conditions": "150 mM NaCl", "endpoint": "MIC", "value": "1 µg/mL"}
{"Structure (SMILES)": "CN1CCN(C(=O)N[C@@H](Cc2ccccc2)C(=O)N[C@H](/C=C/S(=O)(=O)c2ccccc2)CCc2ccccc2)CC1", "organism": "Reston ebolavirus", "assay": "pseudovirus entry", "test system": "HEK293T", "conditions": "RESTV", "endpoint": "IC50", "value": "3.37 ± 0.29 nM"}
{"Structure (SMILES)": "CC(/C=C/C(O)=C1/C(=O)CNC1=O)=C\\[C@@H](C)[C@H]1O[C@@]2(C)O[C@H](C[C@@H]3O[C@@]32CO)[C@@H]1C", "organism": "Bacillus anthracis", "test system": "34F2", "endpoint": "MIC", "value": "6.25 µM"}
{"Structure (SMILES)": "Cc1ccc(NS(=O)(=O)c2c(C(=O)N3CCCCCC3)c(C)n(C)c2C)c(Cl)c1", "organism": "Vaccinia virus", "assay": "viral infection", "test system": "HaCaT", "conditions": "0.412 µM, 36 h", "scale": "relative to: untreated", "endpoint": "infection", "value": "68.6% and 52.9% and 53.4%"}
{"Structure (SMILES)": "COc1ccc(C2=[N+]([O-])c3ccccc3N3CC(C)(C)CN=C23)cc1", "organism": "Clostridium perfringens", "endpoint": "MIC", "value": "1 to 16 µg/mL"}
{"Structure (SMILES)": "CC(C)CC(C(=O)N1CC2(CC1C#N)C(=O)Nc1ccccc12)N(C)C(=O)c1cc2c(F)cc(F)c(F)c2[nH]1 (centres unmarked)", "organism": "SARS-CoV-2", "assay": "viral replication, infectious virus", "test system": "Vero E6", "conditions": "3.333 µM", "endpoint": "inhibition", "value": "99.6%"}
{"Structure (SMILES)": "O=[N+]([O-])c1ccc(C2=[N+]([O-])c3ccccc3N3CCCN=C23)cc1", "organism": "Clostridium perfringens", "endpoint": "MIC", "value": "0.25 to 2 µg/mL"}
{"Structure (SMILES)": "N#Cc1ncn(COCCO)c1C#N", "organism": "Severe acute respiratory syndrome coronavirus", "assay": "viral replication", "test system": "Vero", "conditions": "48 h", "endpoint": "IC50", "value": "48 µg/mL"}
{"Structure (SMILES)": "C[N+]1=C2C(c3ccc(Cl)cc3)=[N+]([O-])c3ccccc3N2CCC1", "organism": "Clostridium perfringens", "endpoint": "MIC90", "value": "32 µg/mL"}
{"Structure (SMILES)": "COc1cccc(NC(=S)NNC(=O)c2ccccn2)n1", "organism": "MERS-CoV", "assay": "viral replication, measured: upE gene", "conditions": "concentration not given", "endpoint": "upE transcript level", "value": "decreased"}
{"Structure (SMILES)": "COC(=O)c1ncn(C2CC(OC(=O)c3ccc(C)cc3)C(COC(=O)c3ccc(C)cc3)O2)c1C(=O)OC (centres unmarked)", "organism": "Zaire ebolavirus", "assay": "viral replication, inhibitor", "test system": "Vero", "conditions": "72 h", "endpoint": "IC50", "value": "10 µg/mL"}
{"Structure (SMILES)": "COC(=O)c1ccccc1NC(=O)Cc1cn(OC)c2ccccc12", "organism": "HIV-1", "assay": "viral replication", "test system": "RT K103N/G190A", "scale": "relative to: wild type", "endpoint": "EC50 fold change", "value": "3.19 ± 0.4 fold"}
{"Structure (SMILES)": "COC(=O)CCCC1C2CCCN3CCCC(CN1S(=O)(=O)c1ccc(Cl)cc1)C23 (centres unmarked)", "organism": "Ebola virus", "conditions": "EBOV GP pseudotyped HIV", "scale": "relative to: CC50 over IC50", "endpoint": "selectivity index", "value": 24.3}
{"Structure (SMILES)": "CCOP(=O)(COCCn1cnc(C#N)c1C#N)OCC", "organism": "Mammarenavirus lassaense", "assay": "viral replication, inhibitor", "test system": "Vero", "conditions": "48 h", "endpoint": "IC50", "value": "13 µg/mL"}
{"Structure (SMILES)": "N#Cc1ccc2cccc(O)c2n1", "organism": "Shigella dysenteriae", "assay": "microbial growth, agar dilution", "endpoint": "MIC", "value": "1500 µM"}
{"note": "A few entries again:"}
{"Structure (SMILES)": "COC(=O)CCCC1C2CCCN3CCCC(CN1S(=O)(=O)c1ccc(Cl)cc1)C23 (centres unmarked)", "organism": "Ebola virus", "conditions": "EBOV GP pseudotyped HIV", "scale": "relative to: CC50 over IC50", "endpoint": "selectivity index", "value": 24.3}
